Experimental data of several laboratories.
Each line is one published result; not all experiments were run side by side. ± marks the error that the study gave.

With `CC1=CCC23OC2(C)CCC2C(C[N+](C)(C)C)C(=O)OC2C13.[I-]` (stereo not shown) the inhibition was 86.3% (DU-145; cell growth or viability, SRB; 8.3 µM).
For `CC[C@@]1(O)C(=O)OCc2c1cc1n(c2=O)Cc2cc3cc(OC(=O)CCCC(=O)NCC(=O)N[C@@H](Cc4ccccc4)C(=O)N[C@@H](Cc4ccccc4)C(=O)N[C@@H](Cc4ccc(OP(=O)(O)O)cc4)C(=O)NCC(=O)N[C@@H](CCC(=O)O)C(=O)N[C@@H](CCCNC(=N)N)C(=O)NCC(=O)N[C@@H](CC(=O)O)C(=O)O)ccc3nc2-1`, the spheroid volume was ~50% (HepG2 spheroids; 100 µM, 7 days; baseline: initial).
For `CC/C=C\C/C=C\C/C=C\C/C=C\C/C=C\C/C=C\CCC(=O)Nc1ccn(C2OC(CO)C(O)C2(F)F)c(=O)n1` (stereo not shown), the CC50 was 52.9 µM (EKVX; NCI60 screen).
The GI50 of `CCCc1cc2c(c(OC)c1OC)OCO2` is reported as 109 µM (A-375; cell growth or viability, MTT; 72 h).
For `CNC(=O)c1cc(Oc2ccc(NC(=O)c3ccc(-c4cccc(COC(=O)CCC(=O)OC5OC6OC7(C)CCC8C(C)CCC(C5C)C68OO7)c4)cn3)cc2)ccn1` (stereo not shown), the apoptotic cells was 17.2% (Huh-7; annexin V/PI flow cytometry; 5 µM, 24 h).
With `COc1ccc2cc1Oc1cc3c(cc1OC)CCN(C)C3Cc1ccc(cc1)Oc1c(O)c(OC)cc3c1C(C2)N(C)CC3` (stereo not shown) the selectivity index was 104 (Huh-7; baseline: Huh-7 CC50 over INDO IC50).
For `Cc1cccc(O)c1C(=O)OCC1(O)C(Nc2ccc3c(c2)Cc2ccccc2-3)C(N)C(NC(=O)N(C)C)(C(C)O)C1(C)O` (stereo not shown), the GI50 was 0.73 µM (OVCAR-3; cell growth or viability, SRB).
For `COC[C@H](NC(C)=O)C(=O)NCc1ccccc1`, “fraction of available current” read 0.35 ± 0.03 (CAD; sodium current slow inactivation, whole-cell patch clamp; 100 µM, 8 s prepulse).
`COc1cc(C)c(OC)c(OC)c1OC` gave a GI50 of > 250 µM (T47D; cell growth or viability, MTT; 72 h).
`N=C(N)Nc1ccc(-c2nc3ccc(-c4ccc5nc(-c6ccc(NC(=N)N)cc6)[nH]c5c4)cc3[nH]2)cc1` — result for “r(CUG)exp-MBNL1 foci per cell”: 2.7 ± 0.3 (FECD patient corneal endothelial cells; 10 µM).
`CN1C(=O)C2(Cc3ccc(CC45SSC(CO)(C(=O)N4C)N(C)C5=O)cc3)SSC1(CO)C(=O)N2C` (racemic): “mRNA level change” -1.4 (MCF7; microarray, refers to: CDKN1A; 600 nM, unit not given, with: deferoxamine 300 µM; baseline: deferoxamine alone).
`C=C1C(=O)O[C@H]2[C@H]1CCC(COC(=O)c1cc(C(F)(F)F)cc(C(F)(F)F)c1)=C1CC[C@@](C)(O)[C@@H]12` has a CC50 of 4.1 µM (M9-ENL1 leukaemia cells; annexin V/7-AAD flow cytometry; 24 h, 5% human plasma).
`C[C@@H](OC(C)(C)C)[C@H](NC(=O)OCc1ccccc1)C(=O)N[C@@H](CC1CCCCC1)C(=O)N[C@H](C=O)C[C@@H]1CCNC1=O`: apoptosis “no effect” (293T; 1 µM, with: antimycin A; baseline: without compound).
`COC[C@@H](NC(C)=O)C(=O)NCc1ccc(-c2cccc(C(F)(F)F)c2)cc1` — result for “use-dependent Na+ current”: “decreased” (CAD; inhibitor; concentration not given).
For `CC[C@H](C)[C@H](NC(=O)CNC(=O)[C@H](CC(C)C)NC(=O)CNC(=O)[C@H](CCCCN)NC(=O)[C@H](CCC(=O)O)NC(=O)[C@H](CCCCN)NC(=O)[C@@H](NC(=O)[C@H](Cc1ccccc1)NC(=O)[C@H](CC(=O)O)NC(=O)[C@H](CCCCN)NC(=O)[C@H](C)NC(=O)[C@H](CCCCN)NC(=O)[C@H](CC(N)=O)NC(=O)[C@H](CC(C)C)NC(=O)[C@H](Cc1c[nH]c2ccccc12)NC(=O)[C@H](CC(=O)O)NC(=O)[C@H](CCCCN)NC(=O)[C@@H](NC(=O)CNC(=O)[C@H](C)N)[C@@H](C)O)[C@@H](C)CC)C(=O)N[C@@H](CC(C)C)C(=O)N[C@@H](CO)C(=O)N[C@@H](C)C(=O)N[C@@H](C)C(=O)N[C@@H](C)C(=O)N[C@@H](CC(N)=O)C(=O)N[C@@H](C)C(=O)N[C@@H](C)C(=O)N[C@H](C(=O)N[C@@H](CC(N)=O)C(=O)O)[C@@H](C)CC`, the EC50 was > 100 µM (F11 cells; intracellular calcium, FLIPR; 0.1% BSA).
For `CCCCCCCCCCCCCCCC[P+](c1ccccc1)(c1ccccc1)c1ccccc1`, the GI50 was 0.268 µM (T47D; cell growth or viability, MTT; 72 h).
`CC[C@@H](C(=O)[C@@H](C)[C@@H](O)[C@H](C)[C@@H]1O[C@@H]([C@@H](CC)C(=O)O)CC[C@@H]1C)[C@H]1O[C@]2(C=C[C@H](NCc3ccc(Cl)cc3)[C@]3(CC[C@@](C)([C@H]4CC[C@](O)(CC)[C@H](C)O4)O3)O2)[C@H](C)C[C@@H]1C` gave a selectivity ratio of 11 (HMLER CD24low/CD44high; cell viability, CellTiter-Blue; 72 h; baseline: IC50 HMLER CD24high/CD44low over CD24low/CD44high).
Under “caspase-3 positive cells”, `C[C@@H](O)[C@H](NC(=O)[C@H](CCCCN)NC(=O)CCCC(=O)O)C(=O)NCC(=O)N[C@@H](CC(=O)O)C(=O)N[C@@H](CCC(=O)O)C(=O)N[C@@H](CCCCN)C(=O)N[C@@H](CCCCN)C(=O)NCC(=O)NCC(=O)N[C@@H](Cc1ccc(O)cc1)C(=O)NCC(=O)N[C@@H](CCCNC(=N)N)C(=O)N[C@@H](CCCCN)C(=O)N[C@@H](CCCCN)C(=O)N[C@@H](CCCNC(=N)N)C(=O)N[C@@H](CCCNC(=N)N)C(=O)N[C@@H](CCC(N)=O)C(=O)N[C@@H](CCCNC(=N)N)C(=O)N[C@@H](CCCNC(=N)N)C(=O)N[C@@H](CCCNC(=N)N)C(N)=O` is recorded as 2.53% (Huh-7; apoptosis, flow cytometry; 40 µM, 16 h).
`CC(C)CC(O)(CC(C)C)c1cn(C(=O)N2CCCC2)nn1` has a protein level of 0.9 ± 0.26 (mouse T-cells; SILAC proteomics, refers to: UQCRH; 1 nM, 6 h, unit not given; baseline: DMSO).
With `C=CCc1ccc(OC(=O)COC(=O)Cn2cnc3c2c(=O)n(C)c(=O)n3C)c(OC)c1` the inhibition was 43.4% (RAW264.7; ELISA, refers to: IL-1β; 1 µM, with: LPS; baseline: LPS alone).
`CCCc1cc(OC)c2c(c1OC)OCO2` has a GI50 of > 250 µM (DU-145; cell growth or viability, MTT; 72 h).
With `CC(C)[C@]12O[C@H]1[C@@H]1O[C@]13[C@]1(O[C@H]1C[C@H]1c4c(C(=O)c5ccccc5)oc(OC(=O)c5ccccc5)c4CC[C@@]13C)[C@@H]2O` the IC50 ratio was 2.9 (MV4-11; cell viability; 72 h; baseline: compound over triptolide).
`C[P+](c1ccccc1)(c1ccccc1)c1ccccc1` has a GI50 of 3.33 µM (T47D; cell growth or viability, MTT; 72 h).
Under “exosomal marker level”, `CN1c2ccc(OC(=O)Nc3ccncc3)cc2C2(C)CCOC12` (stereo not shown) is recorded as “decreased” (donor cells; Western blot, refers to: CD63, CD81, syntenin-1; extracellular vesicles; concentration not given; baseline: DMSO).
The resistance factor of `Cc1cc(C)c(-n2ccn(-c3c(C)cc(C)cc3C)c2=[Se])c(C)c1.[Cl][Au]` is reported as 0.8 (A2780 ADR; MTT; baseline: A2780 ADR over A2780).

Some of these lines once more:
`CC(C)CC(O)(CC(C)C)c1cn(C(=O)N2CCCC2)nn1` has a protein level of 0.9 ± 0.26 (mouse T-cells; SILAC proteomics, refers to: UQCRH; 1 nM, 6 h, unit not given; baseline: DMSO).
`N=C(N)Nc1ccc(-c2nc3ccc(-c4ccc5nc(-c6ccc(NC(=N)N)cc6)[nH]c5c4)cc3[nH]2)cc1` — result for “r(CUG)exp-MBNL1 foci per cell”: 2.7 ± 0.3 (FECD patient corneal endothelial cells; 10 µM).
For `CCCCCCCCCCCCCCCC[P+](c1ccccc1)(c1ccccc1)c1ccccc1`, the GI50 was 0.268 µM (T47D; cell growth or viability, MTT; 72 h).
`CCCc1cc(OC)c2c(c1OC)OCO2` has a GI50 of > 250 µM (DU-145; cell growth or viability, MTT; 72 h).
